Published values pooled from the literature.
Parts stem from different laboratories: compare values within a part only. “And” joins repeats or separate records; there may be more than shown.
UniProt Q99640, sequence (whole entry, looked up): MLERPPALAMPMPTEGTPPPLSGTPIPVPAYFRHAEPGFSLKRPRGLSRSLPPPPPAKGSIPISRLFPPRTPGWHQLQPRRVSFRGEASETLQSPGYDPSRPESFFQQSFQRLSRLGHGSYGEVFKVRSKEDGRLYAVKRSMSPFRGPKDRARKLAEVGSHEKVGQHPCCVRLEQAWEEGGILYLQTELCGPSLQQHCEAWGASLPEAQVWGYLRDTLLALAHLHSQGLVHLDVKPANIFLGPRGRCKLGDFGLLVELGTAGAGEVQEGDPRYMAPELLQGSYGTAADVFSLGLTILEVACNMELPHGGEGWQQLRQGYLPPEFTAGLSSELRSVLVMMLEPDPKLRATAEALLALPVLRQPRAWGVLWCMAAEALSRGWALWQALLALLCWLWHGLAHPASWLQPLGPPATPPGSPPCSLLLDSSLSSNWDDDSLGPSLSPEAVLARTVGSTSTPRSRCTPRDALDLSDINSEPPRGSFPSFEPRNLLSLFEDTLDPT
UniProt Q14004, sequence (whole entry, looked up): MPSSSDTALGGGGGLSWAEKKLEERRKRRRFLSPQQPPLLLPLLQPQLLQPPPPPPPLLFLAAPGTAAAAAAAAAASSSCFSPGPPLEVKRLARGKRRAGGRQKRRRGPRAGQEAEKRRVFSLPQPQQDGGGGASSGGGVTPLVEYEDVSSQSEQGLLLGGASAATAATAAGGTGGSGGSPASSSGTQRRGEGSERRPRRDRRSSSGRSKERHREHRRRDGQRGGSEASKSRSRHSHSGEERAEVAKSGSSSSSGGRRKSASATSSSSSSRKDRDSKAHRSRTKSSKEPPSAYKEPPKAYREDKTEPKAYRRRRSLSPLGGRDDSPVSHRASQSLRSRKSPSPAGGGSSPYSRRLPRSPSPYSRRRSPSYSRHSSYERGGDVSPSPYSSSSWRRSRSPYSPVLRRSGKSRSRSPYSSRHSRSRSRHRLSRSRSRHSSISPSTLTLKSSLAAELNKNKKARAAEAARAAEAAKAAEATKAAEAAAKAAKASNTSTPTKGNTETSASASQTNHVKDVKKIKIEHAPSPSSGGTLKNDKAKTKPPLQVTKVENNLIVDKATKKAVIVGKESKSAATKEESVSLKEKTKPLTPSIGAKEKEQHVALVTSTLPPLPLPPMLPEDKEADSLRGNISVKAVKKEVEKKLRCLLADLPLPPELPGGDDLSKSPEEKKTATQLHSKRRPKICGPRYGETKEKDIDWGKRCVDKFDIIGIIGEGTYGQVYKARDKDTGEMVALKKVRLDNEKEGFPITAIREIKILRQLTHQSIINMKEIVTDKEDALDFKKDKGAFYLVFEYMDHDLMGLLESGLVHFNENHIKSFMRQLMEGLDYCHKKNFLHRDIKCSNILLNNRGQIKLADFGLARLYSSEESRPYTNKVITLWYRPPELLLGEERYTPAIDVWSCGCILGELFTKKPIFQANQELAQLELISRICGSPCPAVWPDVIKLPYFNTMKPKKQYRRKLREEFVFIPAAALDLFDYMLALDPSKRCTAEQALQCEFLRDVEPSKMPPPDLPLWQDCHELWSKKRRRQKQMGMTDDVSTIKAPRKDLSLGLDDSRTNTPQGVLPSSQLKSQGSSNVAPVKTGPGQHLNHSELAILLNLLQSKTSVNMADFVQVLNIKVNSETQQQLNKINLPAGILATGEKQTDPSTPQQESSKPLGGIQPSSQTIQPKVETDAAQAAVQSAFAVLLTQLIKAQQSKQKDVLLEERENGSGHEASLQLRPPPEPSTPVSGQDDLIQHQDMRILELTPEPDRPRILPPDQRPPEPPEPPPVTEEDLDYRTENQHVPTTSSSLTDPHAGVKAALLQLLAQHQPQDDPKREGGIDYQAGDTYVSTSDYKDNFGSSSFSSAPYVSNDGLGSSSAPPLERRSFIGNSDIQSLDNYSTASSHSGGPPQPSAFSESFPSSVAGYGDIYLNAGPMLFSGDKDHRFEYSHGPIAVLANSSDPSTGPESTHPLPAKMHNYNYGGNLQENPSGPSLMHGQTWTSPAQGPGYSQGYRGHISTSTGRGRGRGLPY

Set 1 — cell line: U-87 MG; concentration: concentration not given; baseline: DMSO
SMILES: CCN1/C(=C/C=C2\CCCC(/C=C/C3=[N+](CC)c4ccccc4C3(C)C)=C2NCCCCCCCCN2CCC(Nc3nc4ccccc4n3Cc3ccc(F)cc3)CC2)C(C)(C)c2ccccc21
| item | log2 fold change |
| --- | --- |
| SLC39A10 mRNA | -2.03 |
| STX5 mRNA | 0.991 |
| LOXL1 mRNA | -2.79 |
| PRR7 mRNA | -1.38 |
| AURKA mRNA | -1.81 |
| RPAIN mRNA | 0.819 |
| SMIM21 mRNA | -2.51 |
| HK2 mRNA | 1.72 |
| NFIL3 mRNA | 1.71 |
| UBTF mRNA | -1.6 |
| MID1 mRNA | -1.31 |
| CGNL1 mRNA | -2.56 |
| EIF1B mRNA | 0.922 |
| IL16 mRNA | -1.66 |
| NATD1 mRNA | 1.97 |
| INSR mRNA | 0.987 |

Set 2 — read-out: thermal unfolding; method: differential scanning fluorimetry; concentration: 5.5 µM; reading: higher = more unfolded
SMILES: C[C@@H]1CN(c2ccc(-c3cc(C(=O)NCCOCCOCCOCCOCCNC(=O)/C=C/c4[nH]cc(C(=O)N[C@@H](CC(N)=O)c5ccc(F)c(Cl)c5)c4-c4ccc(Cl)cc4F)ccc3F)cc2NC(=O)c2c[nH]c(=O)cc2C(F)(F)F)C[C@H](C)N1C
DCAF1: DDB1- and CUL4-associated factor 1 (DCAF1, Homo sapiens, UniProt Q9Y4B6)
UniProt Q9Y4B6, sequence (whole entry, looked up): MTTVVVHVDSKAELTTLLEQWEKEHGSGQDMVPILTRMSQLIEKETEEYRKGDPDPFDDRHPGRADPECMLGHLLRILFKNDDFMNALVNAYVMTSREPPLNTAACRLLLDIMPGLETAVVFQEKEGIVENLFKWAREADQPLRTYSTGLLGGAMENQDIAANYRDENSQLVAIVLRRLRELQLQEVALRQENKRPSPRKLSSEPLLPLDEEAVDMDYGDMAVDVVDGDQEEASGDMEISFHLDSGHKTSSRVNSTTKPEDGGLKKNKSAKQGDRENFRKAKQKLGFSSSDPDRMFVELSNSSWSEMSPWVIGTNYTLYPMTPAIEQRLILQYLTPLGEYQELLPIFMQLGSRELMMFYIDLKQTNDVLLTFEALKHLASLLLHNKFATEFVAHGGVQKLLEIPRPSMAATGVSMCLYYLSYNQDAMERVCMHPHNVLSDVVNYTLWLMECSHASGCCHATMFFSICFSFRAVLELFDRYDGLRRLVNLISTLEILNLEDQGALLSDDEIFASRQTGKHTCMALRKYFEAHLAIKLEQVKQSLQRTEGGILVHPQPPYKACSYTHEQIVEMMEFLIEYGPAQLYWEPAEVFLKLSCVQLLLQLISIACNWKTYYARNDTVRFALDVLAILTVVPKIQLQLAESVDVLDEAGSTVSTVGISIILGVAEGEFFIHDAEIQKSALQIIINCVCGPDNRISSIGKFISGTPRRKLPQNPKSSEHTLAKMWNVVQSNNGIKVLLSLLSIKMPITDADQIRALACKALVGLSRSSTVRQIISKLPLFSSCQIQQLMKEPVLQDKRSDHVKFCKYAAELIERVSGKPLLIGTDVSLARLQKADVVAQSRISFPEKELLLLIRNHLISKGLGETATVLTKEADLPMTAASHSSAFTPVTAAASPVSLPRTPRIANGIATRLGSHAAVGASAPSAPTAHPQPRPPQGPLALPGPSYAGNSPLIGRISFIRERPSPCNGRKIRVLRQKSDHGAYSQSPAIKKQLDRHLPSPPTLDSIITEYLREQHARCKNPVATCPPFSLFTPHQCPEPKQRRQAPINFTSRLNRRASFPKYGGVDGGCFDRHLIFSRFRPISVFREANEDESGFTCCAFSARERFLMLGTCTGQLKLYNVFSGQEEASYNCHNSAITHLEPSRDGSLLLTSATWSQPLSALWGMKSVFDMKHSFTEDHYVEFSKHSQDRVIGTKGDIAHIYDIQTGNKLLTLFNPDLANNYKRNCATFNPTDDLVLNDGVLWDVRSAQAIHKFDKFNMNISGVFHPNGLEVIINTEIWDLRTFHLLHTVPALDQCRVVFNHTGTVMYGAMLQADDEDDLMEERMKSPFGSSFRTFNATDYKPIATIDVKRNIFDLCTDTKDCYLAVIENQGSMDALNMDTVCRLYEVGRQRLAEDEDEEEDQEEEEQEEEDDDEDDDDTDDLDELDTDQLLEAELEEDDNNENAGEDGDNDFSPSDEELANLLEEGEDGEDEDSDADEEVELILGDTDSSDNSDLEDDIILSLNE
WDR5: WD repeat-containing protein 5 (WDR5, Homo sapiens, UniProt P61964)
| target | temperature | SYPRO Orange fluorescence |
| --- | --- | --- |
| DCAF1 | 74.21 °C | 51000 a.u. |
| WDR5 | 53.21 °C | 16800 a.u. |
| WDR5 | 68.01 °C | 14400 a.u. |
| WDR5 | 72.21 °C | 19800 a.u. |
| DCAF1 | 27.2 °C | 8860 a.u. |
| WDR5 | 86.61 °C | 53600 a.u. |
| WDR5 | 25.4 °C | 12900 a.u. |
| WDR5 | 76.61 °C | 30000 a.u. |

Other studies, line by line
CDK12 with cyclin K: Cyclin-dependent kinase 12, with cyclin K (CDK12, Homo sapiens, UniProt Q9NYV4)
UniProt Q9NYV4, sequence (whole entry, looked up): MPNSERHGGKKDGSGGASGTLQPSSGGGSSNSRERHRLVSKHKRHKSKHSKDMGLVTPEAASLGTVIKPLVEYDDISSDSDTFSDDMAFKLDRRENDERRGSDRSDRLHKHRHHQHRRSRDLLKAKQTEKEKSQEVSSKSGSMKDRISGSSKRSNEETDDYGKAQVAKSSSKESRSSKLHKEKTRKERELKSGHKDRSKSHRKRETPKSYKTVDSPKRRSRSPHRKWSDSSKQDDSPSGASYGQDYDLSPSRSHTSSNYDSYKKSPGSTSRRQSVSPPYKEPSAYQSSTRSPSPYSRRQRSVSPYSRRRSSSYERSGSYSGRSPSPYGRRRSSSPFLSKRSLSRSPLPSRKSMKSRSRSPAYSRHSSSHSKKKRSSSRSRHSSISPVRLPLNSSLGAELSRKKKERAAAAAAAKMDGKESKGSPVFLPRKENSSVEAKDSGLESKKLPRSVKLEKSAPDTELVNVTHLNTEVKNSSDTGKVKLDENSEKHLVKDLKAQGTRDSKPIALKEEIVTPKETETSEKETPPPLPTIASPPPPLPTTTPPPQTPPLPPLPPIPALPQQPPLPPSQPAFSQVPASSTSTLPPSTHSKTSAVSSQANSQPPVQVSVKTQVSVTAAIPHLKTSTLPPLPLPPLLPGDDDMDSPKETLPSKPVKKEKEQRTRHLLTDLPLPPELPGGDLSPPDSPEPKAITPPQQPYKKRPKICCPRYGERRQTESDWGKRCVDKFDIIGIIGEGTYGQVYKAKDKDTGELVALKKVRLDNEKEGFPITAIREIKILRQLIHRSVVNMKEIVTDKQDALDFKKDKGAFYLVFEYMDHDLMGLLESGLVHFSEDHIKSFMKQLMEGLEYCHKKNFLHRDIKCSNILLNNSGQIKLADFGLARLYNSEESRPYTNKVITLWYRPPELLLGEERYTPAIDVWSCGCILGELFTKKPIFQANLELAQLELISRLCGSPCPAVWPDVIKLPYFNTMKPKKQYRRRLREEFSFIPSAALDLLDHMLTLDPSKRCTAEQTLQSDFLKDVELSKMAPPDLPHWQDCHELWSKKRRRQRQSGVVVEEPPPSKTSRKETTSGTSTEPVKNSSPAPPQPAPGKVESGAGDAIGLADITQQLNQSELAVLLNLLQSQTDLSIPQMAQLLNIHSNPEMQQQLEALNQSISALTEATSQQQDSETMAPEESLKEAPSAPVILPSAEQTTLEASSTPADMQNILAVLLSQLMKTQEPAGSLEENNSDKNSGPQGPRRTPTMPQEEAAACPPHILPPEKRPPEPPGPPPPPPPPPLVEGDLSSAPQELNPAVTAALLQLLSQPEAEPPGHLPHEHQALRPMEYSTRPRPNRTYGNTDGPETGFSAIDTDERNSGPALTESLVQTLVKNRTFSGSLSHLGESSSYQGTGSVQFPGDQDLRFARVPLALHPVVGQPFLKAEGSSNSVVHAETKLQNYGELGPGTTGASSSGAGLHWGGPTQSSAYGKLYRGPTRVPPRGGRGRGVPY
| Structure (SMILES) | target or system | assay | system | conditions | scale | measurement | value |
| --- | --- | --- | --- | --- | --- | --- | --- |
| CCN(CC)CC(=O)N1CCN(c2nc(NCc3nc4cc(Cl)c(Cl)cc4[nH]3)c3ncn(CC)c3n2)CC1 | Cyclin-dependent kinase 13 (CDK13, Homo sapiens, UniProt Q14004) | degrader, DIA proteomics | MDA-MB-231 | 100 nM, 2 h | baseline: DMSO | protein level decrease | ~4 fold |
| Cc1ccc(O)c(C)c1-c1cnc2[nH]c(-c3cnc(N4CCC(CN5CCN(c6ccc(NC7CCC(=O)NC7=O)cc6F)CC5)CC4)nc3)cc2c1C#N (stereo not drawn) | – | – | male Sprague-Dawley rat, plasma | oral, 10 mg/kg | – | bioavailability | 32.3% |
| CCn1cnc2c(NCc3nc4cc(Cl)c(Cl)cc4[nH]3)nc(N3CCN(C(=O)c4cccnc4)CC3)nc21 | CDK12 with cyclin K | kinase activity, inhibitor, ADP-Glo | – | 0.0247 µM | – | inhibition | 1.4% |
| Cc1ccc(O)c(C)c1-c1cnc2[nH]c(-c3cnc(N4CCC5(CC4)CC(N4CCN(c6ccc(N[C@H]7CCC(=O)NC7=O)cc6F)CC4)CO5)nc3)cc2c1C#N (single isomer, unassigned) | HCT-116 | item: phospho-MEK | – | – | baseline: pMEK EC50 over pCDK1 IC50 | selectivity ratio | 16 fold |
| CCCCOc1nc(NCc2nc3cc(Cl)c(Cl)cc3[nH]2)c2ncn(CC)c2n1 | CDK12 with cyclin K | kinase activity, inhibitor, ADP-Glo | – | 0.0741 µM | – | inhibition | 18.7% |
| Cc1ncc(-c2cc3c(C(N)=O)c(-c4c(C)ccc(O)c4C)cnc3[nH]2)cn1 | Membrane-associated tyrosine- and threonine-specific cdc2-inhibitory kinase (PKMYT1, Homo sapiens, UniProt Q99640) | binding, HTRF | – | 1111.11 nM | – | inhibition | 89.7% and 90.3% |
| Cc1ncsc1-c1ccc(C2(NC(=O)C3CC(O)CN3C(=O)C(NC(=O)c3ccc(COc4c(-c5c(C)c(F)cc6[nH]ncc56)c(C5CC5)cc5c(N6CC7CC6CN7)nc(OC6CCOCC6)nc45)cc3)C(C)C)CC2)cc1 (stereo not drawn) | GTPase KRas (KRAS, Homo sapiens, UniProt P01116, G12D) | degrader, In-Cell ELISA | AsPC-1 (KRAS G12D) | 24 h | – | DC50 | 236 nM and 111 nM and 224 nM |
| Cc1ccc(O)c(C)c1-c1cnc2[nH]c(-c3cnc(N4CCC(CN5CCC(c6ccc(NC7CCC(=O)NC7=O)cc6F)CC5)CC4)nc3)cc2c1C#N (stereo not drawn) | HCC1569 | CDK1 Thr14 phosphorylation, in-cell western | – | 4.12 nM | lower = stronger inhibition | phospho-CDK1 (Thr14) level | 22.2 a.u. and 29.7 a.u. |
| Cc1nc(C)c(C=[N+]([O-])C(C)(C)C)nc1C | – | Western blot, item: tyrosine hydroxylase | MPTP mouse model, substantia nigra | 90 mg/kg, unit not given | baseline: β-actin | protein level | 99.9 and 88.9 and 97.5 and 105 |

Repeated from above (set 1):
| item | log2 fold change |
| --- | --- |
| STX5 mRNA | 0.991 |
| LOXL1 mRNA | -2.79 |
| HK2 mRNA | 1.72 |
| PRR7 mRNA | -1.38 |
